Measured values of several laboratories.
A part holds a random share of what one study measured. Positions count from the first letter of the parent shown.

Series 1 — method: protein binding microarray; molecule type: double-stranded DNA, one strand shown; sample: in vitro; concentration: not given; reference: not given; direction: higher = stronger binding; endpoint: E-score
Target: Histone acetyltransferase KAT6A, winged helix 2, GST fusion (KAT6A, Homo sapiens, UniProt Q92794, residues 85-181)
Setting: 8-mer, flanks averaged, mean of 2 arrays, mostly near background
Target sequence (chain): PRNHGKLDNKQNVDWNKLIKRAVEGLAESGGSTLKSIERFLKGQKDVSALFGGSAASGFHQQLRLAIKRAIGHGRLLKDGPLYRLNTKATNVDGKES
CGGGCAGC: 0.204
CCTCTTTC: -0.0298
AAATTTGT: 0.0557
GAAGCTGA: 0.108
CAATTTTA: -0.0475
CTTACTAA: 0.126
GCCATGCC: 0.106
AACGCTGC: -0.0254
TGTGAGAA: -0.116
AAGACCTA: 0.0374
ATATGGTC: -0.0669
GACCGCCA: 0.0614
CTCCCCCA: -0.129
CTGGAGAC: 0.0384
AGTCATGC: -0.203
ACAATACT: -0.0338
GCACGCAA: 0.0879
CCGTGCTC: 0.117
TCCTCCAA: 0.0739

Series 2 — target: CCNA2, cyclin fold, Cln2 fusion (human); method: yeast growth competition, sequencing; sample: yeast; setting: strong parent motif; reference: not given; direction: higher = stronger binding; endpoint: normalised enrichment score
Starting sequence: CDKN1B docking peptide (human); PSACRNLFGPVDH; partner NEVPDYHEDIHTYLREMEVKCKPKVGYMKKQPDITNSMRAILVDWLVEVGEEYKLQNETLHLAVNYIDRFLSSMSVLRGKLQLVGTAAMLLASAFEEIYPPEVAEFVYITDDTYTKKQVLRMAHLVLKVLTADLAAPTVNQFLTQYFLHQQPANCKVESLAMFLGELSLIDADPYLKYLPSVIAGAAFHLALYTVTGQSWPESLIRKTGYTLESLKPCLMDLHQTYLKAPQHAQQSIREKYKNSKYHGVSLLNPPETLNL
PSACRNLFGPTDH [V11T]: 3.45
PSAARNLFGPVDH [C4A]: 3.73
PSACRNNFGPVDH [L7N]: 0.0621
PSACRNCFGPVDH [L7C]: -0.757
PSACRQLFGPVDH [N6Q]: 4.19
PSHCRNLFGPVDH [A3H]: 1.83
PFACRNLFGPVDH [S2F]: 2.4
PSACRNLFGPVDK [H13K]: 4.03
PSGCRNLFGPVDH [A3G]: 0.218
PSACRNLFVPVDH [G9V]: 1.42
PSACRNVFGPVDH [L7V]: 0.73
PSACRYLFGPVDH [N6Y]: 0.421
PSACRNLCGPVDH [F8C]: -0.14
PSACRNWFGPVDH [L7W]: 0.622
HSACRNLFGPVDH [P1H]: 4.26
DSACRNLFGPVDH [P1D]: 1.03
PSACRNLFGPVFH [D12F]: 3.51
PSACRNLFWPVDH [G9W]: 0.977
PSACRNLFGPVDW [H13W]: 4.15
PSACRILFGPVDH [N6I]: 2.05
PSDCRNLFGPVDH [A3D]: -0.0785
PSACFNLFGPVDH [R5F]: 0.487
SSACRNLFGPVDH [P1S]: 3.36
PSACRNLHGPVDH [F8H]: 0.278

Series 3 — method: RNA Bind-n-Seq; molecule type: RNA; sample: in vitro; concentration: not given; reference: input RNA pool; direction: higher = stronger binding; endpoint: bound/input enrichment
Target: RING finger protein unkempt homolog, zinc fingers 1-6, GST-SBP tag (UNK, Homo sapiens, UniProt Q9C0B0, residues 30-357)
UniProt Q9C0B0, sequence (30-357, looked up): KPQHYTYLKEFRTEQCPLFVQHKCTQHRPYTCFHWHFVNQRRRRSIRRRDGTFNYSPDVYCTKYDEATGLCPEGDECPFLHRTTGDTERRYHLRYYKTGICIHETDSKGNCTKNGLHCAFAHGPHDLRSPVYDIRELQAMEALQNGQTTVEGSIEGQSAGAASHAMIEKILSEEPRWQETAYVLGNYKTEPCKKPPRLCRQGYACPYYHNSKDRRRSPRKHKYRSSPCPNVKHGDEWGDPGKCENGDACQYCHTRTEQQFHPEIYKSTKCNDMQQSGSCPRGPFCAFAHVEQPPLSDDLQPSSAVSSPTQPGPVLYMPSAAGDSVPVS
Setting: RNA with constant flanks, human-mouse chimeric sites, ends assumed
Constant ends, left off below: GGGAGUUCUACAGUCCGACGAUC … CAACAGAGGAUUGAGCAUCA
CCAAUUGUGGAGCAGUACUUGAAGACAAAGAAAAAUUCUAGUCAUUUAAUCAUCAAGUACAUUAGCUGCCGCCUGCUGACACUCAUCAUUAUACUGUUAGCGUGUAUCUACUUGAGCUAU: 0.502 ratio
UCAACUGACAACAUCAAAUACCAGCCUAAAGGGGGGCAGGUACAAAUUGUUACCAAGAAAAUAGACCUAAGCCAUGUGACAUCCAAAUGUGGCUCUCUGAAGAACAUCCGUCACAGGCCA: 0.476 ratio
GAAACAUUUAAAUUUAAAGAAGCUGUUGUUCUAGGAAGCACGGACUUUCUAGAAGAUGAUAUAGAGAAAAUUGUAGAAGAACUGGGGAAAGAGUAUAAGGGCAACGCCUACCAUCUGAUG: 1.4 ratio
CAGCCUCAGAGCCCAGACUUCCUGGAUAUUACCAACCCUAAAGCGGUAUUAGAAAAUGCAUUGAGAAACUUUGCCUGUCUGACGACUGGAGAUGUGAUUGCUAUCAACUAUAAUGAAAAG: 0.5 ratio
UCCCUGUUGCUGAAUAAAUGGCUUGUAAAGAAGUUUUCCAAGUUGUAAACCCAUGCUGUUAUUAUAGUUGCUGCAAAAUGUUCUUCCUGAUAUUGAUUUUAUUUGUUAACUGAAGGUCUC: 0.358 ratio
GUAUUUGUGCGCUCCCCACUCGUGUUUUUAAGUGUAUUUUUAUAAGAUACAUGUAUUUACAAUUGAGUUUUUGAUUAAUAAUGCUGAAAUGCUACUGGAGAUUAUGAAAAAUGUUUCAAU: 0.254 ratio
GGGACUGAUUCAUCCCAAGGACAGGCAGCCCAGUCUGAUGCCUGGACUGAUGACAGUAUGGAAGGGCCUAGUCAAAAUGUUGAAGCUGAGUCAAUUCAGGAUGCCAUGAGUAUGGAAGAG: 0.298 ratio
AUAGAUGAAAUUGAUGUGGACCAGGAAGGAAUUGCUGAAAUGAUCCUGGAUGAAAAUGCUAUAGCUCAGGUCCCACGCCCUGGCACAUCUUUGAAGCUCCCUGGAACUAACCAAACAGGA: 0.379 ratio
AAUAGAGGAUCCACCUCCCAAAGUGCUGGGAGUAAAGGUGUGGCCACCACACCUAACUUGAUGGAUAUAUAUUUUUUUUAAUAUGAAUGAACUCUUGCGUCCAGGGAAGAAAGAUUUGUU: 0.854 ratio
GCUGAAAAUGAAGAAGAGGCAGCUGAUGUCUGGUACAACCUGGGGCACAUAGCUGUGGGAAUAGGAGAUACAAAUUUGGCCCACCAAUGCUUCAGGCUGGCCCUGGUCCACAACAACCAC: 0.747 ratio
AGAAAGCAAAACUUGGAAAGAUUUAAGAAAGGAGACGUAAGAUUCUUGAUUUGCACAGAUGUAGCUGCUAGAGGAAUUGAUAUCCAUGGCGUUCCUUAUGUGAUCAACGUCACCCUGCCU: 0.292 ratio

Mixed results
PhoQ, residues 284 288 289 292 302 303 TNASYF  fold induction (PhoP, residues 12 14 15 18 19 GQAIL (Escherichia coli, UniProt P23836); Sort-seq, measured: YFP reporter; E. coli; PhoQ-PhoP variant library, with: 10 µM Mg2+; reference: high Mg2+ state, higher = stronger signaling): 11.1

Some of these lines once more (series 2):
PSACRNVFGPVDH [L7V]: 0.73
SSACRNLFGPVDH [P1S]: 3.36
PSACRNLFGPVDW [H13W]: 4.15
PSGCRNLFGPVDH [A3G]: 0.218
